Measurements of several laboratories.
Lines come from different studies, so protocols differ. ± gives the spread as reported.
Chain of UniProt P0A725 (whole entry, looked up): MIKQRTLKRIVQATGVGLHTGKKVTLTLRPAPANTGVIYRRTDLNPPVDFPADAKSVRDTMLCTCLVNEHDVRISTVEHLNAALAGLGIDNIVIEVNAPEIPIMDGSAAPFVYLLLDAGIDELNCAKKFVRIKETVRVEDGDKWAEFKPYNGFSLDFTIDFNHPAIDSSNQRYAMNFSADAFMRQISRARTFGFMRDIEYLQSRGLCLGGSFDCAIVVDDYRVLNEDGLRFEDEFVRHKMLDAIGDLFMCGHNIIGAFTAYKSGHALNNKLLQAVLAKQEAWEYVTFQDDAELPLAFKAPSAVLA
Chain of UniProt Q9UNQ0 (whole entry, looked up): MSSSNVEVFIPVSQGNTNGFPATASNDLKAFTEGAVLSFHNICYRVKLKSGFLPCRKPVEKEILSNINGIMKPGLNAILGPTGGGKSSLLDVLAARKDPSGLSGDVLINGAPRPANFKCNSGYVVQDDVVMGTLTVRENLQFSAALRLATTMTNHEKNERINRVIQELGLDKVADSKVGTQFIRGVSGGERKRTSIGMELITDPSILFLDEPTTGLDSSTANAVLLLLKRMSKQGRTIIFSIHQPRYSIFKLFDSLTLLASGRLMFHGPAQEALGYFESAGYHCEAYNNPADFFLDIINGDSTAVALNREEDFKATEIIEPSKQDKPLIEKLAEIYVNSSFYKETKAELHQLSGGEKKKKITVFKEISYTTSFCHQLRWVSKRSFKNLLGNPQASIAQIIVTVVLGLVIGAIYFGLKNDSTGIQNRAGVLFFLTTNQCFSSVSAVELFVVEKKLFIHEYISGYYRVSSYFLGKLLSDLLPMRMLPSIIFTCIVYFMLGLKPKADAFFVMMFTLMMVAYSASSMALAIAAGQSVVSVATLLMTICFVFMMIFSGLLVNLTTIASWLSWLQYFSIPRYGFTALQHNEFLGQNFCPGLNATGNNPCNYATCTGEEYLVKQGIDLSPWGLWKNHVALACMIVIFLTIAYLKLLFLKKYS
Chain of UniProt P61073 (whole entry, looked up): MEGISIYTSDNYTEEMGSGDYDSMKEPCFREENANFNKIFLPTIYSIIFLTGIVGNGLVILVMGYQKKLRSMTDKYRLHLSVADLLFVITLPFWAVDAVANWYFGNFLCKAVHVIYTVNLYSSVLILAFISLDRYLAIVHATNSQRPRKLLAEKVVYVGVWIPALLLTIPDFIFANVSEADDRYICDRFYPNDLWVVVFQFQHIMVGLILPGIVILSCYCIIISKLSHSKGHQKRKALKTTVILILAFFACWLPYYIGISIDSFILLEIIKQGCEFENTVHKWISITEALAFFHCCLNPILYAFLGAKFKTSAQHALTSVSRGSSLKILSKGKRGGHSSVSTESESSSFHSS

Compound = CC(C)[C@H](NC(=O)CNC(=O)[C@H](CCC(N)=O)NC(=O)[C@H](C)N)C(=O)O; system = human; setting = intravenous infusion, 90 mg/kg/h, 2 h infusion; quantity = discontinued due to adverse events; result = 0%
Compound = Cc1nc([C@H](NC(=O)c2ccc(-c3ccc(Cl)cc3)[nH]2)[C@H]2CCCCN2)sc1CO; target or system = TZM-bl; assay = cell growth or viability, XTT; quantity = CC50; result = ~24 µM
Compound = CC(C)n1c2c(c3c(O)cccc31)C(=O)c1ccccc1-2; target or system = ABCG2 (Homo sapiens, UniProt Q9UNQ0); assay = mitoxantrone efflux, inhibitor, flow cytometry; system = HEK293 transfected with ABCG2; setting = 10 µM, 30 min, together with: mitoxantrone 5 µM; scale = baseline: Ko143 1 µM; quantity = inhibition; result = 45%
Compound = COc1ccc(CNc2nc(N3CCC[C@H]3CO)ncc2C(=O)NNC(=O)c2cnc(N3CCC[C@H]3CO)nc2NCc2ccc(OC)c(Cl)c2)cc1Cl; target or system = Salmonella typhimurium; system = TA98; setting = 125 µg/plate, 48 h; quantity = revertant count; result = 28 ± 9
Compound = C[n+]1ccc(Nc2ccc(O)cc2)c2ccc(Cl)cc21; target or system = Vero WNV replicon cells; setting = 24 h; quantity = CC50; result = > 100 µM
Compound = CN1CCN(C(=O)N[C@@H](Cc2ccccc2)C(=O)N[C@H](/C=C/S(=O)(=O)c2ccccc2)CCc2ccccc2)CC1; target or system = African green monkey cells; assay = cytotoxicity; quantity = CC50; result = > 100 µM
Compound = CCC(=O)N(C)c1ccc(Cl)c(Cl)c1; target or system = Escherichia coli; assay = Ames test; system = WP2 uvrA; setting = 5.00 mg/plate, without S9 activation; quantity = revertants; result = 0 revertants/plate
Compound = O=P(O)(O)Oc1ccc(Oc2ccc(S(=O)(=O)CC3CS3)cc2)cc1 (racemic); assay = metabolic stability; system = rat, liver S9; quantity = half-life; result = > 1 h
Compound = COc1cc(NC(=O)C(=O)c2c(C)n(Cc3ccc(Cl)cc3)c3ccc(C)cc23)ccn1; system = female cynomolgus monkey, plasma; setting = intravenous, 1 mg/kg; quantity = Vz; result = 26 L/kg
Compound = COc1cc(C(=O)NCCOCCOCCOCCNC(=O)c2ccc([18F])nc2)ccc1NC(=O)C1NC(CC(C)(C)C)C(C#N)(c2ccc(Cl)cc2F)C1c1cccc(Cl)c1F (stereo not shown); target or system = HepG2 tumour model; system = host not given, blood; setting = 4 h, tumour-bearing; quantity = tracer uptake; result = 0.29 %ID/g
Compound = COc1ccc(CNc2nc(N3CCC[C@H]3CO)ncc2C(=O)NN)cc1Cl; target or system = Salmonella typhimurium; system = TA1535; setting = 250 µg/plate, 48 h, together with: rat liver S9; quantity = revertant count; result = 54 ± 2
Compound = CCCCCc1cc(OC(=O)C(NC(=O)CCC(=O)O)C(C)C)c2c(c1)OC(C)(C)C1CCC(C)=CC21 (stereo not shown); system = isolated rabbit cornea; setting = 3 h, pH 7.4, 34 °C, donor Cremophor RH sample A 0.05%; quantity = Papp; result = 32 ± 2.1 nm/s
Compound = Nc1nc2c([C@@H]3O[C@@H]4COP(=O)(O)O[C@H]5[C@@H](O)[C@H](c6snc7c(=O)[nH]c(N)nc67)O[C@@H]5COP(=O)(O)O[C@H]4[C@H]3O)snc2c(=O)[nH]1; system = water; quantity = emission maximum; result = 456 nm
Compound = COC(=O)C[C@](O)(CCCC(C)(C)OC(C)=O)C(=O)O[C@@H]1C(OC)=C[C@]23CCCN2CCc2cc4c(cc2[C@H]13)OCO4; system = CD1 mouse, esophagus; setting = oral, 1 mg/kg, 0.5 h; quantity = concentration; result = 0.406 µg/mL
Compound = O=C(O)CCC(NP(=O)(O)OCCC[C@@H](NC(=O)CCC(NC(=O)CCCCCNC(=O)CCCCCNC(=O)c1ccc([18F])cc1)C(=O)O)C(=O)O)C(=O)O (stereo partly shown); target or system = CWR22Rv1 tumour model; system = host not given, heart; setting = intravenous, 1 h, tumour-bearing; quantity = tracer uptake; result = 0.23 %ID/g
Compound = CN1C(=O)[C@@H](Cc2ccc(O)cc2)NC(=O)CNC(=O)[C@H](Cc2ccc3ccccc3c2)NC(=O)[C@H](CCCNC(=N)N)NC(=O)[C@H]1CCCNC(=O)c1ccc(CNC(=O)CN2CCN(CC(=O)O)CCN(CC(=O)O)CCN(CC(=O)O)CC2)cc1 [gallium-68 labelled]; target or system = CXCR4 (Homo sapiens, UniProt P61073); assay = PET; system = human, NSCLC lesion; quantity = SUVmean; result = 2.7
Compound = O=C(N=P12CN3CN(CN(C3)C1)C2)c1ccccn1.[Cl][Pd][Cl]; assay = NMR; system = DMSO:water 50:50; quantity = stability time; result = > 4 days
Compound = CN(C)CC1CCCCC1(O)c1cccc(O)c1 (stereo not shown); target or system = P-glycoprotein; system = Caco-2 TC7; setting = 1 µM, 3 h, pH 7.4, together with: elacridar 4 µM; quantity = Papp A to B; result = 135 ± 13 nm/s
Compound = Nc1nc2c([C@@H]3O[C@@H]4COP(=O)(O)O[C@H]5[C@@H](O)[C@H](n6cnc7c(=O)[nH]c(N)nc76)O[C@@H]5COP(=O)(O)O[C@H]4[C@H]3O)snc2c(=O)[nH]1; system = water; quantity = emission maximum; result = 456 nm
Compound = CC[C@H](C)C(=O)N1CCC(NC(=O)Nc2ccc(OC(F)(F)F)c(F)c2)CC1; system = human; setting = oral, 8 mg, fed, geometric LS mean; quantity = AUC(0-t); result = 4.2 µg·h/mL
Compound = C[C@@](O)(C(F)F)[C@H](NC(=O)c1ccc(C#CC#CC2CC2)cc1)C(=O)NO; target or system = UDP-3-O-acyl-N-acetylglucosamine deacetylase (Escherichia coli K-12, UniProt P0A725); assay = rapid equilibrium dialysis; system = mouse plasma; setting = 10 µM, without LpxC in buffer; quantity = buffer to plasma concentration ratio; result = 0.033 ± 0.001
Compound = O=C(O)CCC(NP(=O)(O)OCCC[C@@H](NC(=O)CCC(NC(=O)c1ccc([18F])cc1)C(=O)O)C(=O)O)C(=O)O (stereo partly shown); target or system = CWR22Rv1 tumour model; system = host not given, spleen; setting = intravenous, 1 h, tumour-bearing; quantity = tracer uptake; result = 1.18 %ID/g
Compound = Nc1nc2c([C@@H]3O[C@@H]4COP(=O)(O)O[C@H]5[C@@H](O)[C@H](n6cnc7c(=O)[nH]c(N)nc76)O[C@@H]5COP(=O)(O)O[C@H]4[C@H]3O)scc2c(=O)[nH]1; system = water; quantity = emission maximum; result = 458 nm
Compound = CC[N+](C)(CC)Cc1cc(Nc2ccnc3cc(Cl)ccc23)ccc1O; target or system = Vero WNV replicon cells; setting = 24 h; quantity = CC50; result = 23.2 ± 10.8 µM
Compound = CN[C@](C)(C[18F])C(=O)O; target or system = MDA-MB-468 tumour model; system = host not given, blood; setting = 15 min, tumour-bearing; quantity = tracer uptake; result = 2.7 %ID/g

For quick reference, copied from above:
Compound = C[C@@](O)(C(F)F)[C@H](NC(=O)c1ccc(C#CC#CC2CC2)cc1)C(=O)NO; target or system = UDP-3-O-acyl-N-acetylglucosamine deacetylase (Escherichia coli K-12, UniProt P0A725); assay = rapid equilibrium dialysis; system = mouse plasma; setting = 10 µM, without LpxC in buffer; quantity = buffer to plasma concentration ratio; result = 0.033 ± 0.001
Compound = O=C(O)CCC(NP(=O)(O)OCCC[C@@H](NC(=O)CCC(NC(=O)c1ccc([18F])cc1)C(=O)O)C(=O)O)C(=O)O (stereo partly shown); target or system = CWR22Rv1 tumour model; system = host not given, spleen; setting = intravenous, 1 h, tumour-bearing; quantity = tracer uptake; result = 1.18 %ID/g
Compound = Nc1nc2c([C@@H]3O[C@@H]4COP(=O)(O)O[C@H]5[C@@H](O)[C@H](n6cnc7c(=O)[nH]c(N)nc76)O[C@@H]5COP(=O)(O)O[C@H]4[C@H]3O)scc2c(=O)[nH]1; system = water; quantity = emission maximum; result = 458 nm
Compound = CC[N+](C)(CC)Cc1cc(Nc2ccnc3cc(Cl)ccc23)ccc1O; target or system = Vero WNV replicon cells; setting = 24 h; quantity = CC50; result = 23.2 ± 10.8 µM
